Assay results from different studies.
Numbers after ± are the reported error.
Cell line: RAW264.7

| SMILES | test | conditions | measurement | value |
| --- | --- | --- | --- | --- |
| CC(=O)Oc1ccc(Cn2cc(F)c(=O)[nH]c2=O)cc1C1OC(c2cccc(Cl)c2)=NN1C(C)=O (stereo not drawn) | cell growth or viability, resazurin |  | CC50 | > 100 µM |
| O=C(CCc1ccc(O)c(O)c1)NCCc1ccccc1 | cytotoxicity | 24 h | IC50 | 35.5 ± 4.07 µM |
| CC(=O)Oc1ccc(Cn2ccc(=O)[nH]c2=O)cc1C1OC(c2ccc(Cl)cc2)=NN1C(C)=O (stereo not drawn) | cell growth or viability, resazurin |  | CC50 | > 100 µM |
| CN(C)C1CCN(c2nc3oc4ccccc4c(=O)c3s2)CC1 | cell growth or viability, MTT | 48 h | CC50 | 84.6 µM |
| CC(=O)Oc1ccc(Cn2cc(F)c(=O)[nH]c2=O)cc1C1OC(c2ccc(Cl)cc2)=NN1C(C)=O (stereo not drawn) | cell growth or viability, resazurin |  | CC50 | 19.2 µM |
| COc1ccc(-c2coc3c(CC=C(C)C)c(O)c(CC=C(C)C)c(O)c3c2=O)cc1O | cell growth or viability, MTT | 25 µg/mL, 24 h | viability | 63.9% |
| O=[N+]([O-])c1c(Br)c(Cl)c2cccnc2c1O | cell growth or viability, CCK-8 | 48 h | IC50 | ~52.2 µg/mL |
| C[C@H]1[C@H](C)CC[C@]2(C(=O)O)CC[C@]3(C)C(=CC[C@@H]4[C@@]5(C)CC[C@H](O[C@@H]6O[C@@H](C)[C@H](O)[C@@H](O)[C@H]6O)C(C)(C)[C@@H]5CC[C@]43C)[C@H]12 |  | added: LPS | lowest cytotoxic concentration | 20 µM |
| CC(C)=CCc1c2c(c(O)c3c(=O)c(-c4ccc(O)cc4)coc13)CC(C(C)(C)O)O2 (stereo not drawn) | cell growth or viability, MTT | 25 µg/mL, 24 h | viability | 5.34% |
| O=c1c2ccccc2oc2nc(N3CCCCC3)sc12 | cell growth or viability, MTT | 48 h | CC50 | 51.4 µM |
| CC(C)=CCc1c(O)c(CC=C(C)C)c2occ(-c3ccc(O)c(O)c3)c(=O)c2c1O | cell growth or viability, MTT | 100 µg/mL, 24 h | viability | 5.66% |
| CC(=O)O[C@@H]1CC[C@@]2(C)C(CC[C@]3(C)C2C(=O)C=C2C4[C@@H](C)[C@H](C)CC[C@]4(C)CC[C@]23C)[C@@]1(C)C(=O)OCC(=O)Oc1cc(C)ccc1C(C)C (stereo partly drawn) | cell growth or viability, MTT | 25 µM, 24 h | viability | 88% |
| CC(C)=CCc1cc(-c2coc3cc(O)c(CC=C(C)C)c(O)c3c2=O)ccc1O | cell growth or viability, MTT | 50 µg/mL, 24 h | viability | 8.67% |
| CC(=O)Oc1ccc(Cn2cc(C)c(=O)[nH]c2=O)cc1C1OC(c2cccc(Cl)c2)=NN1C(C)=O (stereo not drawn) | cell growth or viability, resazurin |  | CC50 | > 100 µM |
| CCN(CC)c1nc2oc3ccccc3c(=O)c2s1 | cell growth or viability, MTT | 48 h | CC50 | 47.8 µM |
| COc1cccc(NCc2cn(-c3ccccc3)nc2-c2ccc(OCc3ccccc3)cc2)c1 | MTT | 20 µM, 24 h, added: LPS | viability | 70 ± 2.37% |
| COc1ccc(CCNC(=O)CCc2ccc(O)c(O)c2)cc1OC | cytotoxicity | 24 h | IC50 | 52 ± 4.85 µM |
| O=C([O-])CN1CCN(CC(=O)[O-])CCN(C(CCC(=O)NC(Cc2c[nH]c3ccc(O)cc23)C(=O)NCCc2c[nH]c3ccc(O)cc23)C(=O)O)CCN(CC(=O)[O-])CC1.[Gd+3] (stereo not drawn) | MTT | up to 5 mM, 16 h, 37 °C | cytotoxicity | not toxic |
| CC(=O)O[C@@H]1CC[C@@]2(C)C(CC[C@]3(C)C2C(=O)C=C2C4[C@@H](C)[C@H](C)CC[C@]4(C)CC[C@]23C)[C@@]1(C)C(=O)OCc1cn(CC(=O)Oc2cc(C)ccc2C(C)C)nn1 (stereo partly drawn) | cell growth or viability, MTT | 25 µM, 24 h | viability | 100% |
| CC#CCC#CCCCC(OC(C)=O)C(=O)NCCCOc1ccc2c(-c3ccccc3C(=O)OCC)c3ccc(=O)cc-3oc2c1 (stereo not drawn) |  | 5 µM, 37 °C, 10% FBS DMEM, no competitor | time to saturation of labelling | 3.75 min |
| CC(=O)Oc1ccc(Cn2ccc(=O)[nH]c2=O)cc1C1OC(c2cccc(Cl)c2)=NN1C(C)=O (stereo not drawn) | cell growth or viability, resazurin |  | CC50 | > 100 µM |
| O=C(Nc1nc2ccccc2s1)C1CCN(S(=O)(=O)c2ccc(F)c(Cl)c2)CC1 | MTT | up to 30 µM, 24 h | cytotoxicity | not toxic |
| COc1cc2c(cc1O)[C@]1(O)C(=O)c3c(O)cc4c(c3O[C@@H]1CO2)C=CC(C)(C)O4 | cell growth or viability, MTT | 100 µg/mL, 24 h | viability | 5.53% |
| COc1ccc(/C=N\NC(=O)[C@]2(C)C3CC[C@]4(C)C(C(=O)C=C5C6[C@@H](C)[C@H](C)CC[C@]6(C)CC[C@]54C)[C@@]3(C)CC[C@H]2OC(C)=O)cc1O (stereo partly drawn) | cell growth or viability, MTT | 25 µM, 24 h | viability | 92% |

Repeated from above:
| SMILES | test | conditions | measurement | value |
| --- | --- | --- | --- | --- |
| CC(=O)O[C@@H]1CC[C@@]2(C)C(CC[C@]3(C)C2C(=O)C=C2C4[C@@H](C)[C@H](C)CC[C@]4(C)CC[C@]23C)[C@@]1(C)C(=O)OCC(=O)Oc1cc(C)ccc1C(C)C (stereo partly drawn) | cell growth or viability, MTT | 25 µM, 24 h | viability | 88% |
| CC(C)=CCc1cc(-c2coc3cc(O)c(CC=C(C)C)c(O)c3c2=O)ccc1O | cell growth or viability, MTT | 50 µg/mL, 24 h | viability | 8.67% |
